Assay results pooled from the literature.
Each line is one published result; not all experiments were run side by side. ± marks the error that the study gave.

Under “incidence of gastrointestinal disorders”, CC(C)c1nc(N(C)S(C)(=O)=O)nc(-c2ccc(F)cc2)c1/C=C/[C@@H](O)C[C@@H](O)CC(=O)O is recorded as 10.7% (healthy human subjects; oral, dose not given, study CL-0537 safety set).
[O-][S+]1CCc2nc(N3CCC(c4ncc(Cl)cn4)CC3)nc(NC3(CO)CCC3)c21 (stereo not shown): “adverse event incidence” 16.7% (item: abdominal distension; healthy male humans; 48 mg single dose).
Under “change in Interested-Bored score”, O=C(Nc1ccccc1)C1CCN(C(=O)Oc2cccnc2)CC1 is recorded as -3.7 (Bond-Lader VAS; healthy women; oral, 20 mg; reference: pre-dose baseline, direction not given).
For CCc1ccc(CC/C=C/c2ccc3c(c2)C(=O)CC3)cc1, the prothrombin time was 12.7 s (Sprague-Dawley rat, female, blood; oral, 120 mg/kg/day, 14 days).
Under “dose fraction in skim milk”, Oc1c(Cl)cc2c(c1Cl)Oc1cc(Cl)c(Cl)cc1O2 is recorded as 43.7% (whole cow milk; 500 nM nominal).
Under “patients with nausea”, O=C1Nc2cc3[nH]nc(-c4ccncc4)c3cc2CN1Cc1ccccc1 is recorded as 50% (CTCAE v4.03; human, relapsed or refractory advanced solid tumours; intravenous, 4.8 mg/kg, pooled schedules).
CCCCCCCCCCCCCCCC(=O)N[C@@H](CCC(=O)NCCCC[C@H](NC(=O)[C@H](CC(=O)O)NC(=O)[C@H](CO)NC(=O)[C@@H](NC(=O)[C@H](Cc1ccccc1)NC(=O)[C@@H](NC(=O)CNC(=O)[C@H](CCC(N)=O)NC(=O)[C@H](CO)NC(=O)[C@@H](N)Cc1c[nH]cn1)[C@@H](C)O)[C@@H](C)O)C(=O)N[C@@H](CO)C(=O)N[C@@H](CCC(=O)O)C(=O)N[C@@H](Cc1ccc(O)cc1)C(=O)N[C@@H](CC(C)C)C(=O)N[C@@H](CC(=O)O)C(=O)N[C@@H](CO)C(=O)N[C@@H](CCC(=O)O)C(=O)N[C@@H](CCCNC(=N)N)C(=O)N[C@@H](C)C(=O)N[C@@H](CCCNC(=N)N)C(=O)N[C@@H](CC(=O)O)C(=O)N[C@@H](Cc1ccccc1)C(=O)N[C@H](C(=O)N[C@@H](C)C(=O)N[C@@H](Cc1c[nH]c2ccccc12)C(=O)N[C@@H](CC(C)C)C(=O)N[C@@H](CCC(=O)O)C(=O)N[C@@H](C)C(=O)NCC(=O)NCC(=O)O)C(C)C)C(=O)O has an abdominal distension of 0% (human, CrCl ≥20 to <30 mL/min; sc, 100 µg single dose).
COc1ncccc1-c1cnn2ccc(N3CCN(C(=O)OC(C)C)CC3)nc12: “free drug concentration” 0.125 µM (rat, CCI mechanical allodynia model, plasma; oral, 30 mg/kg, 240 min).
For CC(C)C(=O)OC[C@H]1O[C@@H](n2ccc(NO)nc2=O)[C@H](O)[C@@H]1O, the freeze-thaw stability was 97.78 ± 0.47% (rat maternal blood dialysate; 250 ng/mL, high concentration, three cycles, with: NHC 1000 ng/mL).
C[C@]1(O)C[C@@](N)(c2ccc(-c3nc4n(c3-c3ccccc3)COc3ccncc3-4)cc2)C1: “patients with grade ≥3 Dyspnea TEAE” 11.8% (human, advanced or metastatic solid tumours; dose not given, all patients).
CCCCCOc1ccc(-c2ccc(-c3ccc(C(=O)N[C@H]4C[C@@H](O)[C@@H](OCC[N+](C)(C)C)NC(=O)[C@@H]5[C@@H](O)[C@@H](C)CN5C(=O)[C@H]([C@@H](C)O)NC(=O)[C@H]([C@H](O)[C@@H](O)c5ccc(O)cc5)NC(=O)[C@@H]5C[C@@H](O)CN5C(=O)[C@H]([C@@H](C)O)NC4=O)cc3)cc2)cc1 has an albumin of 36.9 g/L (adult ICU patients, mITT, serum; dose not given, Follow-up).
Clc1cc2c(cc1Cl)Oc1c(ccc(Cl)c1Cl)O2 — result for “dose fraction in milk fat”: 86.7% (whole cow milk; 2000 nM nominal).
Under “patients with any TEAE”, CC(=O)c1c(C)c2cnc(Nc3ccc(C4CCN(CCS(C)(=O)=O)CC4)cn3)nc2n(C2CCCC2)c1=O is recorded as 100% (HR+/HER2- advanced breast cancer patients; oral, 25 mg).
Under “patients with adverse event”, C[C@@H]1OC(=O)NN=C1c1ccc(-c2ccc(F)cc2)c(C(F)(F)F)c1 is recorded as 20% (phase I trial, item: Diarrhoea all grades; human patients; dose not given, all dose groups).
O=C(N[C@@H](CSCc1ccc([N+](=O)[O-])cc1)C(=O)NO)c1ccccc1 has an LD50 of > 2000 mg/kg (ICR mouse, male; oral, 14 days).
Under “grade ≥3 hypocalcaemia”, NC(=O)[C@H]1CCN(c2ncnc(N)c2F)C[C@@H]1N1CCC[C@@H](Nc2cc(Cl)cc(C(F)(F)F)c2)C1=O is recorded as 0% (B-cell malignancy patients; oral, 246 mg twice daily, dose).
For CO[C@H]1C[C@@H]2CC[C@@H](C)[C@@](O)(O2)C(=O)C(=O)N2CCCC[C@H]2C(=O)O[C@H]([C@H](C)C[C@@H]2CC[C@@H](OC(=O)NCCOCCOCCOCCOCCOCCOCCOCCOCCC(=O)N3CCc4cc(Cn5nc(-c6ccc7oc(N)nc7c6)c6c(N)ncnc65)ccc4C3)[C@H](OC)C2)C[C@@H](O)[C@H](C)/C=C(\C)[C@@H](O)[C@@H](OC)C(=O)[C@H](C)C[C@H](C)/C=C/C=C/C=C/1C, the TRAE incidence was 0% (phase 1 dose escalation, item: diarrhoea; advanced solid tumour patients; intravenous, 16 mg weekly, any grade).
For CCS(=O)(=O)Nc1ccc(Oc2ccc(F)cc2F)c(-c2cn(C)c(=O)c3[nH]ccc23)c1, “treatment-emergent adverse events” read 0% (fatal septic shock; human, relapsed/refractory AML; oral, dose not given).
For CN1CC[C@@H](c2c(O)cc(O)c3c(=O)cc(-c4ccc(C(F)(F)F)cc4Cl)oc23)[C@@H]1CO, “adverse event incidence” read 12.5% (item: Sepsis; relapsed or refractory haematological malignancies; oral, dose not given, grade 3 to 4).
For C[C@@H]1NC(=O)[C@H](CCCCNC(=O)CO/N=C/C(=O)NCCCC[C@@H]2NC(=O)[C@@H](Cc3ccccc3)NC(=O)[C@H](CC(=O)O)NC(=O)CNC(=O)[C@H](CCCNC(=N)N)NC2=O)NC(=O)CNC(=O)[C@@H]2CCCN2C(=O)[C@H](CCCCNC(=O)CO/N=C/C(=O)NCCCC[C@@H]2NC(=O)[C@@H](Cc3ccccc3)NC(=O)[C@H](CC(=O)O)NC(=O)CNC(=O)[C@H](CCCNC(=N)N)NC2=O)NC(=O)[C@H](CCCCNC(=O)[C@H](CCCCN)NC(=O)[C@H](Cc2ccccc2)NC(=O)CNC(=O)CN2CCCNCCNCCCNCC2)NC(=O)[C@H](CCCCNC(=O)CO/N=C/C(=O)NCCCC[C@@H]2NC(=O)[C@@H](Cc3ccccc3)NC(=O)[C@H](CC(=O)O)NC(=O)CNC(=O)[C@H](CCCNC(=N)N)NC2=O)NC(=O)CNC(=O)[C@@H]2CCCN2C(=O)[C@H](CCCCNC(=O)CO/N=C/C(=O)NCCCC[C@@H]2NC(=O)[C@@H](Cc3ccccc3)NC(=O)[C@H](CC(=O)O)NC(=O)CNC(=O)[C@H](CCCNC(=N)N)NC2=O)NC1=O [copper-64 labelled], the tissue uptake was 1.65 ± 0.33 %ID/g (normal mice, heart; intravenous, 0.74 MBq, 3 h post-injection).
For COc1ncnn2ccc(-c3cnc4nc(C)n(Cc5nnc([C@@H](C)F)o5)c4c3)c12, “incidence of grade ≥3 tumour lysis syndrome” read 14.3% (human patients; oral, dose not given).
CCCC1CCC(C2CCC(c3ccc(F)c(F)c3)CC2)CC1 (stereo not shown) — result for “median placental accumulation”: 6.32 ng/g (rat, placenta; 1000 ng/mL in perfusate, middle dose, mixture of 21 LCMs).
C=CCNc1c(O)cc2c(O)c1C[C@@H](C)C[C@H](OC)[C@H](O)[C@@H](C)/C=C(\C)[C@H](OC(N)=O)[C@@H](OC)/C=C\C=C(/C)C(=O)N2: “patients with diarrhoea TEAE” 57% (unresectable or metastatic STS, GIST, other; intravenous, 500 mg/m^2).
CCN1CCN(Cc2ccc(Nc3ncc(F)c(-c4cc(F)c5nc6n(c5c4)[C@H](C)CCC6)n3)nc2)CC1: “dose reduction for haematologic toxicity” 8.3% (Phase Ia dose escalation; patients with advanced solid tumours; dose not given, monotherapy; reference: patients).
N=C(N)NCCNC(=O)C1(Nc2ccccc2)CCN(Cc2ccccc2)CC1: “elimination rate constant” 0.000222 s⁻¹ (Sprague-Dawley rats, both sexes; intravenous, 2.5 mg/kg, mean of both sexes).
For C[C@]1(CO)Cc2ncn(-c3ccc(C#N)c(Cl)c3)c2C(=O)O1, the Cmax was 0.335 µM (human; oral, 10 mg, high-fat breakfast, adjusted geometric mean).
The phosphorus of CC(C)[C@@H]1NC(=O)CNC(=O)[C@H](CC(N)=O)NC(=O)[C@H](CCCNC(=N)N)NC(=O)[C@H](Cc2ccc(O)cc2)NC(=O)[C@H](C(C)C)NC(=O)[C@@H](NC(=O)[C@@H](NC(=O)[C@H](CC(N)=O)NC(=O)[C@H](Cc2c[nH]c3ccccc23)NC(=O)[C@H](C)NC(=O)[C@H](Cc2ccccc2)NC(=O)CN)C(C)C)CSSC[C@@H](C(=O)N[C@@H](Cc2cnc[nH]2)C(=O)N[C@@H](CCCNC(=N)N)C(=O)N[C@@H](CCCNC(=N)N)C(=O)N[C@@H](C)C(=O)N[C@@H](CC(N)=O)C(N)=O)NC(=O)[C@H](C(C)C)NC(=O)[C@H](CCCNC(=N)N)NC1=O is reported as 3.3 ± 0.06 mmol/L (ICR mice, serum; intraperitoneal, 10 mg/kg, day 5).
For COc1cc2c(Oc3ccc4[nH]c(C)cc4c3F)ccnc2cc1OCC1(N)CC1, the Epistaxis incidence was 18.2% (paediatric recurrent refractory sarcoma; 12 mg).
Under “hyperphosphatemia incidence, grade ≥3”, C=CC(=O)N1CC[C@H](n2nc(C#Cc3cc(OC)cc(OC)c3)c3c(N)ncnc32)C1 is recorded as 5% (human patients; oral, dose not given, QD regimen, adverse drug reaction, with: any phosphate binder).
O=C(O)CCCOc1ccc(F)cc1-c1cc(-c2ccccc2C(F)(F)F)n(-c2ccccc2)n1 has an organ weight of 1.27 ± 0.04 g (male Crl:CD(SD) rats, lungs; intravenous, 25 µg/kg, 14 d).
The body weight of Oc1ccc(CSCc2ccc(O)cc2)cc1 is reported as 34.7 ± 3.67 g (ICR mice male; oral, 1500 mg/kg, day 8, acute toxicity).
For CC(C)[C@@H]1CC[C@@H](C)C[C@@H]1O, the cholesterol was 72.7 ± 1.37 mg/dL (acute oral toxicity OECD; Swiss albino mice, serum; oral, 1000 mg/kg).
COc1cccc2c1C(=O)c1c(O)c3c(c(O)c1C2=O)C[C@@](O)(C(=O)CO)C[C@@H]3O[C@H]1C[C@H](N)[C@H](O)[C@H](C)O1: “serum troponin I” “increased” (healthy BALB/cJ mice; 3 mg/kg weekly, 3 weeks, blood 1 week after treatment).
Cl.Cn1c(=O)n(CCCCN2CCC3(CC2)OCc2ccccc23)c2ccccc21: “elimination rate constant” 5.28e-05 s⁻¹ (male Sprague-Dawley rat, plasma; intravenous, 10 mg/kg).
COc1cc2nccc(Oc3ccc(NC(=O)c4cc5c(n(-c6ccccc6)c4=O)CCCC5=O)nc3)c2cc1OC — result for “TEAEs leading to death”: 10% (patients with relapsed/refractory AML; oral, 3 mg once daily).
For C=CC(=O)Nc1cc(Nc2nccc(Nc3cc(Cl)c(F)cc3C(C)(C)O)n2)c(OC)cc1N1CC[C@@H](N(C)C)C1, “patients with AST increased” read 6.3% (human patients; oral, 200 mg, treatment-emergent adverse events).
CN1C(=O)[C@@H](NC(=O)c2nnc(Cc3ccccc3)[nH]2)COc2cccnc21 — result for “participants with TEAE leading to death”: 0% (phase I single ascending dose; human, male and female; oral, 30 mg, fasted).

For quick reference, copied from above:
For CO[C@H]1C[C@@H]2CC[C@@H](C)[C@@](O)(O2)C(=O)C(=O)N2CCCC[C@H]2C(=O)O[C@H]([C@H](C)C[C@@H]2CC[C@@H](OC(=O)NCCOCCOCCOCCOCCOCCOCCOCCOCCC(=O)N3CCc4cc(Cn5nc(-c6ccc7oc(N)nc7c6)c6c(N)ncnc65)ccc4C3)[C@H](OC)C2)C[C@@H](O)[C@H](C)/C=C(\C)[C@@H](O)[C@@H](OC)C(=O)[C@H](C)C[C@H](C)/C=C/C=C/C=C/1C, the TRAE incidence was 0% (phase 1 dose escalation, item: diarrhoea; advanced solid tumour patients; intravenous, 16 mg weekly, any grade).
For CCS(=O)(=O)Nc1ccc(Oc2ccc(F)cc2F)c(-c2cn(C)c(=O)c3[nH]ccc23)c1, “treatment-emergent adverse events” read 0% (fatal septic shock; human, relapsed/refractory AML; oral, dose not given).
For CN1CC[C@@H](c2c(O)cc(O)c3c(=O)cc(-c4ccc(C(F)(F)F)cc4Cl)oc23)[C@@H]1CO, “adverse event incidence” read 12.5% (item: Sepsis; relapsed or refractory haematological malignancies; oral, dose not given, grade 3 to 4).
